Assay results gathered from unrelated publications.
Parts stem from different laboratories: compare values within a part only.
Sequence of UniProt Q9C0C9 (whole entry, looked up): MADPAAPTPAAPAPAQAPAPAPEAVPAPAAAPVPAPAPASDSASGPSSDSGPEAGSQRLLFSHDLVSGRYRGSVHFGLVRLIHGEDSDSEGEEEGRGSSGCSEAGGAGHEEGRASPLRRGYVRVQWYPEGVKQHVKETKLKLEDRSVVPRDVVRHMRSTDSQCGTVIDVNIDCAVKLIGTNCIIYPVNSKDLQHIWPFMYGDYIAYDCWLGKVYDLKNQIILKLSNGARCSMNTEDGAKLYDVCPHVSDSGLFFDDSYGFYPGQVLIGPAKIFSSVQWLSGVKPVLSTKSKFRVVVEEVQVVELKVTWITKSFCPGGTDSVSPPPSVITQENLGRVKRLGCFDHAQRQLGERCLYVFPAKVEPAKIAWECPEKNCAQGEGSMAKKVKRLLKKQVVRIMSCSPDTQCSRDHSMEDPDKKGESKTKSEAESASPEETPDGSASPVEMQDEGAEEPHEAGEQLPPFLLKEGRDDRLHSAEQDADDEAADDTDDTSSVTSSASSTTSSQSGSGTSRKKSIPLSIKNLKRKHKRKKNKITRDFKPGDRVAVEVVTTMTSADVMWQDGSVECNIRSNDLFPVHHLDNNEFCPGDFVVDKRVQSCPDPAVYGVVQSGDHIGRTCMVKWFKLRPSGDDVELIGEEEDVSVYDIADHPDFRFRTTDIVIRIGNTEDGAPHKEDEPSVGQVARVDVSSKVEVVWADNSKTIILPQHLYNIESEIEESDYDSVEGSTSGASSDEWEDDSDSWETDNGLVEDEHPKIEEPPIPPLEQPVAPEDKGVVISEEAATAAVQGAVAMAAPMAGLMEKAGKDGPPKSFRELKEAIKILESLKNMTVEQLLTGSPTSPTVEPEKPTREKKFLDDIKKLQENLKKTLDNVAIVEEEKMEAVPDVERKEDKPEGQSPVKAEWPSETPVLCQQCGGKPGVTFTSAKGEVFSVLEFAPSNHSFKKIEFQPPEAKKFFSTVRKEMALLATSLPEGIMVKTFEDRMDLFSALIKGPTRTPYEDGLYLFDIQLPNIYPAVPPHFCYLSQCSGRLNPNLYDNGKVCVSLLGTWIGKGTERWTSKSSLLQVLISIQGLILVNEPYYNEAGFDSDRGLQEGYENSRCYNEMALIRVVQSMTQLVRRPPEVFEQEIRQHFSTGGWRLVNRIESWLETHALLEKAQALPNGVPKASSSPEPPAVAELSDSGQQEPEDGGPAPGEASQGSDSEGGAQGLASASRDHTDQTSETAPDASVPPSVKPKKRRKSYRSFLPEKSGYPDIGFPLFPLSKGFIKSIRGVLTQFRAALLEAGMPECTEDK
Sequence of UniProt O00762 (whole entry, looked up): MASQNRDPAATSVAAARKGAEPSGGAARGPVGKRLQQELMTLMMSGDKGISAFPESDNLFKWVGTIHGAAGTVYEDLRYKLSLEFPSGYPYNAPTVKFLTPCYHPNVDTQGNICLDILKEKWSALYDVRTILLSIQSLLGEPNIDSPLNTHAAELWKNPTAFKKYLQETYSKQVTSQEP
Sequence of UniProt P63146 (whole entry, looked up): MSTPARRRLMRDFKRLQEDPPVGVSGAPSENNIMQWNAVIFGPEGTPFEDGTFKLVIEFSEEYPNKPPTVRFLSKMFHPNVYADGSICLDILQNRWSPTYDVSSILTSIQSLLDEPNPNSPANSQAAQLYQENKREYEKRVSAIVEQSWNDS
Sequence of UniProt P51668 (whole entry, looked up): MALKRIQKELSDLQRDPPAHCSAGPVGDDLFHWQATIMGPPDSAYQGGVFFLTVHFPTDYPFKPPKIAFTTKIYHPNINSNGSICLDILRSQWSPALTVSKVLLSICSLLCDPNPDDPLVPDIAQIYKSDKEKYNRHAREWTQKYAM
Sequence of UniProt P62253 (whole entry, looked up): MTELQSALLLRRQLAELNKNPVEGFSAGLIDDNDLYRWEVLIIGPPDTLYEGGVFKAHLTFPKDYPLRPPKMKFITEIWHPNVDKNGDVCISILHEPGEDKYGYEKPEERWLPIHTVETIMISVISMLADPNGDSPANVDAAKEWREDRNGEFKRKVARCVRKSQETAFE
Sequence of UniProt Q9Y385 (whole entry, looked up): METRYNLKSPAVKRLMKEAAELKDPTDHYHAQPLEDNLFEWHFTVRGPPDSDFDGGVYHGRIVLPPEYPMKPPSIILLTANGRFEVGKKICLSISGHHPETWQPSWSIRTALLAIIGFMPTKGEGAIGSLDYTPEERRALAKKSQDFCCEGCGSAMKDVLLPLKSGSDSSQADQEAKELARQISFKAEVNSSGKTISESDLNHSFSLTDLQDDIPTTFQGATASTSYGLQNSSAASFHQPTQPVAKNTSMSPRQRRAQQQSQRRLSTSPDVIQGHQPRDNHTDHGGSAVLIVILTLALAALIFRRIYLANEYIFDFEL
Sequence of UniProt Q7Z7E8 (whole entry, looked up): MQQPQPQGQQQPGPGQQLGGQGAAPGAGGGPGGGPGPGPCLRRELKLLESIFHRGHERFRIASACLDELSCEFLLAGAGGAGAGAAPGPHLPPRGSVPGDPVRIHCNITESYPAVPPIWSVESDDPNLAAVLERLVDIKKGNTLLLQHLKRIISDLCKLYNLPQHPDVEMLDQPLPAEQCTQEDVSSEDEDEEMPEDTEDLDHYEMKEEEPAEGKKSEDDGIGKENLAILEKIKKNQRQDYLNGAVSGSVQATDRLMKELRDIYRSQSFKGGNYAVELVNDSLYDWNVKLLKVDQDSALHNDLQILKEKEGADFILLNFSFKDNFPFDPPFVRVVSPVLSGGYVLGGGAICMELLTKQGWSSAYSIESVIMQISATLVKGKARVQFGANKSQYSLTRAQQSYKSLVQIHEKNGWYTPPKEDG

Sample 1
Sequence: ANYISAHTKDCPKCNICIEKNGGCNHMQCSKCKHDFCWMCLGDWKTHGSE (ARIH2 RING domain (UniProt O95376))
Technique: yeast two-hybrid
Form: peptide
Medium: yeast
Notes: mostly zero background
Relative to: not given
Reading: higher = stronger interaction
| target | lacZ reporter activity |
| --- | --- |
| UBE2C UBC core domain (UniProt O00762) | 0 |
| UBE2B UBC core domain (UniProt P63146) | 0 |
| UBE2J1 UBC core domain (UniProt Q9Y385) | 0 |
| UBE2I UBC core domain (UniProt P63279) | 0 |
| UBE2G1 UBC core domain (UniProt P62253) | 0 |
| UBE2O UBC core domain (UniProt Q9C0C9) | 0 |
| UBE2Q1 UBC core domain (UniProt Q7Z7E8) | 0 |
| UBE2D1 UBC core domain (UniProt P51668) | 0 |

Sample 2
Target: Phosphate system positive regulatory protein PHO4, full length, GST-tagged (PHO4, Saccharomyces cerevisiae, UniProt P07270, residues 1-312)
Technique: competition protein-binding microarray
Form: double-stranded DNA, one strand shown
Medium: in vitro
Concentration: 2 µM
Notes: whole 60-bp probe, lowest competitor level
With: Cbf1 competitor, 0.05 µM
Reading: higher = stronger binding
All sequences stand within: … GTCTTGATTCGCTTGACGCTGCTG
Residues (chain): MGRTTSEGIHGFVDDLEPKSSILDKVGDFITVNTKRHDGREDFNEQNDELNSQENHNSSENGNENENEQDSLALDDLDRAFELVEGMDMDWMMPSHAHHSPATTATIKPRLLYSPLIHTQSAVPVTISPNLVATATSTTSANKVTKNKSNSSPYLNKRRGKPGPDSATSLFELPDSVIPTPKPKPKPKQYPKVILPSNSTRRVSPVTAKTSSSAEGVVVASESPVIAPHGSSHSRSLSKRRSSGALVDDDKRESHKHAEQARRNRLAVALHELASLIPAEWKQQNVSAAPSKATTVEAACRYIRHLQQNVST
| Oligonucleotide | fluorescence intensity [a.u.] |
| --- | --- |
| AGGCCAATGCTGCTAAGCGTGCTAAAGCCAAGGCCC | 7270 |
| AAATTACTAAGTTGTCACTGGACTTACCCCGTATGA | 3340 |
| GGTGGTACCTGTGTTAACGTGGGTAGTGTTCCGAAG | 10200 |
| CCACCGTTTGAGAGTGGTGTGACAGGACGCCCAAGA | 4270 |
| CTTTCCCGATCTTGAATTGTGGGTGTAGCACATTTG | 4930 |
| TTGAGTTTCCCTCACTTCGTGATGGGCGTTAACGTC | 3790 |
| ATTTATTTACCCCATCACGTGCAAAAATTGAACCTG | 15300 |
| CGTCCTAGTGATTGTTTCGTGGGTGCCATGAGGAAG | 8070 |
| CGGGGTTAAGTTTTTCACGTGCCTTGCTTGCAGCAG | 14500 |
| CTAACGAAGGTTTGACGTGTGGGTGACAAGCCAAGT | 5380 |
| AAATTACTAAGTTGTTGAGTGGGTGACGCCGTATGA | 3760 |
| AAATTACTAAGTTGTGCGGTGGGTGACGCCGTATGA | 5050 |
| GCTTCCCTATTTTTGCACGTTTTGGTTGCTCCCAAG | 11200 |
| AAATCCGTCCTGAAACCCGTGCTAAAATCCGTTTAC | 11400 |
| GATCAGTTTGAAAGAAACGTGAAAATTATTTTTTTC | 8210 |
| AATTATTTAAGCTCACACAGGCAGAAATCAAGGGAT | 4190 |
| GTCTTGTCTCATTGTTTTGTGGGTGTCCCCACTTCA | 5150 |
| GGAAATCGAACATTTCACGTTCTGCAGAATTTAAAG | 8790 |
| TGTCTCCACAGTACCAACGTGCGATATCTGCTTCTC | 12200 |

Sample 3
Target: RNA binding protein fox-1 homolog 2, RRM domain, GST-SBP tag (RBFOX2, Homo sapiens, UniProt O43251-10, residues 100-194)
Technique: RNA Bind-n-Seq
Form: RNA
Medium: in vitro
Concentration: 365 nM
Notes: natural RNA segment, single round, ends assumed
Relative to: no-protein control
Reading: higher = stronger binding
All sequences stand within: GGGAGUUCUACAGUCCGACGAUC … UGGAAUUCUCGGGUGCCAA
Construct (chain): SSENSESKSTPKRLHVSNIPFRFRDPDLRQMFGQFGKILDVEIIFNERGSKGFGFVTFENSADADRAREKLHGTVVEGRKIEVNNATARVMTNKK
| Oligonucleotide | RBNS enrichment (R) |
| --- | --- |
| ACACAGAAUGGAACUGUGAGUGGAGAGAUGAAUAAGUUGCCCCCCCAGCCCCCCUUCCCAUUUGUUUCUCCUUCUCUAAUCCCAGGGACUAUGGUAGAGACUUGCUGCUC | 0.579 |
| GAAGCCUGGUUUCUGGGAGAACACUGCACAGCGAUUUCUUUCCCAGGAUUUACACAACUUUAAAGGGAAGAUAAAUGAACAUCAGAUUUCUAGGUAUAGAACUAUGUUAU | 0.424 |
| CAGUCCCCCUCACUGCUUGAGCUAACACUGCCACCUCUUUUGUGUGAGCACAAAAGCCACGUCCCAAGCCACCUGGCCCGAUUCCACAGAUGUAUGUGCGGCCAGUGACU | 0.26 |
| UGCUUGUUGAGUUGUUUUGGCAUUCAUAUUAAAAGCCAGCAUCUCACUAUUUAUUGACAGGUUGGGCUGUGUGUGUGCGCAUGUGUGUAUACAUUUCCAGGCGUGCCUGU | 0.77 |
| CACAUGUAUGACAGAGAACAGAGGAUGCCUGUUUUUGCCCCAAAGCUGGAAAUUCAUCACAACCUGAGGCCCAGGAUCUGCUCUGUGCCGGUCCUCUGGGCAGUGUGGGG | 0.593 |
| AUCUCUGUUGAAGGCUUUUGAUCCUUUUGAGAAAUAAAGAUCUGAAAGAAAUGGCAUAAUCUUAAAACUUGGUAAGUUUUUGUGGCUGUGUAAUCUCUUCAUUAUUAUAU | 0.511 |
| CAACUUCGGAAGAUGCAGUUGUACGUGGCUAUUCCAUUCCUAAAGGCACAACAGUCAUUACAAAUCUUUAUUCUGUUCACUUUGAUGAAAAGUACUGGAAAGAUCCAGAC | 0.271 |
| GAAUGUUUGACAGUCACAGAAGGUUCCUGCAGCAGAUGCCUCUUUUAGCCAUUUCUCAUUUUUUUCCUCAAAUUUUACCUACUGAGGCUCAAGCCUUCACAGUGAGCUGA | 0.469 |
| CGGGGGUGGGCUCUGGGGAAGCCGGUGCGCCCCCCACGCCUCCGCUGCCAGUGCCUUACAUUCUGGAGCGACCCCCCUCCCUGGUGCCUCCCAGCGAAGGGGGACCGCCG | 0.263 |
| GACUUGUUUACUCAUUGAAGCAGAUUUCUGCUUCCUUUUAUUUUUAUAGGAAUAGAGGAAGAAAUGUCAGAUGCGUGCCCAGCUCUUCACCCCCCAAUCUCUUGGUGGGG | 0.421 |
| GGUGUAUUUGAAUGACUAUUUUAUUCGUAUUUAAAAUAAUACUAUUAAGUAAGCAUUUUGCACAUGGGCACCCCAGUGUCCCGCUGGCCCAGCAGGAGUCACUGUUGGCC | 0.678 |
| GACCAAAAGUUACAUGUUUGCACCUUUCUAGUUGAAAAUAAAGUAUAUAUAUAUUUUUUAUAUGAAAGGCUUGGCUGUUCAUUCUUGUAAACUUUUCUUGGUUUUCCCGG | 1.13 |

Sample 4
Target: RING finger protein unkempt homolog, zinc fingers 1-6, GST-SBP tag (UNK, Homo sapiens, UniProt Q9C0B0, residues 30-357)
Technique: RNA Bind-n-Seq
Form: RNA
Medium: in vitro
Concentration: not given
Notes: RNA with constant flanks, ends assumed
Relative to: input RNA pool
Reading: higher = stronger binding
All sequences stand within: GGGAGUUCUACAGUCCGACGAUC … CAACAGAGGAUUGAGCAUCA
Residues (chain): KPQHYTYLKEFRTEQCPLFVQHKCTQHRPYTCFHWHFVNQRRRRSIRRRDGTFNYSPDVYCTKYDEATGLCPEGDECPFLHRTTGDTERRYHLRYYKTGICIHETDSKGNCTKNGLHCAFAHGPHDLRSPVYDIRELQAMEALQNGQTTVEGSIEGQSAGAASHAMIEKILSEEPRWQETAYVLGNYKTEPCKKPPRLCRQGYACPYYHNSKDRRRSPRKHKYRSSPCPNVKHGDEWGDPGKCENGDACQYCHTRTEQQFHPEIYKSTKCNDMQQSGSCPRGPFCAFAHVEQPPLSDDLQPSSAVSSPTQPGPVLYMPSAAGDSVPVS
| Oligonucleotide | bound/input enrichment [ratio] |
| --- | --- |
| GCGUUCGCGGGGCCGAGGCCAUGGCUUUCUGGGCGGGGGGUUCGCCCAGCGUCGUGGACUAUUUCCCCCGCGAGGACUUCUACCGCUGCGGCUACUGCAAGAACGAGUCGGGCAGCCGCU | 0.299 |
| CCUGUCAUUCACAACGGAAGCCAGGGCACGGGCACCAAUGGGUCGGAAAUCAGUGACCGCGAUUAUCAGGCAGAAUACCCCGAUGAAUAUCAUGGCGAGUACCCAGACGACUACCCUCGG | 0.163 |
| GACAAAGAGGCUCUGACAGAGGAGAAGUGCCUCCCACGUCAGAACCGUUACGAUGGGCAGGCCGCUGUAUUUGGGUCAGACUUUCAGGAGAAGCUGAGCAAGCAAAAGUACUUCCUGGUG | 0.0564 |
| CUGAGAAUCUAUCUUGAUGAAAGGAGAGAUGUCUUGGAUGACCUUGUAACAUUGCAUAAUUUCCGAAAUCAGUUCUUGCCAAAUGCACUGAGAGAAUUUUUUCGUCAUAUCCAUGCCCCU | 0.157 |
| ACUCUGUGGUUAGUAAGAGGCCUUUGCUCAGGUCCCAUUCUGUUCCUCUUCCCUGCUGAGUACCGGCCGCUGGAUCCUGCGGUCCACUUUGCUUACUAUCUAACUGCCUUUGAUUGAUUG | 0.123 |
| AUUCAAAAGGCAGUGGCAGUUUCAUAGGACAGGUACAAGCAACAUCUUUUUUGGGUCCUACCGUUACAGGAUAACUUCUUCAAGAGUUUCUCCAGCCACAUCCUUUGUUUUUCUGAACCC | 0.19 |
| GGGGGGGGUGUGCCUGCUGUACUUGACUGAAGUGUAAAGCUUUGGUAAGGAUUUGGCCUCCCGCAGUCUUAGGUUUCUGCAUUUACCACGGUGACACAGCCCCUACAGGGCUGACUAGGA | 3.25 |
| GACAGUGAAGAAGAAAUUAGAGAAGCAUUCCGUGUGUUUGAUAAGGAUGGCAAUGGCUAUAUCCGUGCUGCAGAACUUCGCCAUGUGAUGACAAACCUUGGAGAGAAGUUAACAGAUGAA | 0.569 |
| UUGGUGUCCAGAGCUCACCAGCUGGUGAUGGAGGGAUAUAACUGGUGCCAUGACCGGAACGCCGUAACAAUUUUCAGUGCUCCAAACUAUUGCUAUCGUUGUGGUAACCAAGCUGCAAUC | 0.0866 |
| AAAGGAGAGAAGAAGGAGAAAAAACAGCAAUCAAUAGCUGGAAGUGCCGACUCUAAGCCAACCGAUGUUUCCCGUCUGGAUCUUCGAAUUGGUUGCAUCAUAACUGCUAGAAAACACCCU | 0.182 |
| ACACCCACGAUCCAGUGUCUGCUUUACCUAUUUAUUUUUUAAGUUUUUUUAACGUCUGCUUUCCGAAGUGGAGCUUUGACAGGGUGUUUGCUCGAUAGAAAGGCAGCCUCUGUCCUUAAG | 4.75 |
